Assay results from different studies.
“And” joins repeats or separate records; there may be more than shown.
T1: itself; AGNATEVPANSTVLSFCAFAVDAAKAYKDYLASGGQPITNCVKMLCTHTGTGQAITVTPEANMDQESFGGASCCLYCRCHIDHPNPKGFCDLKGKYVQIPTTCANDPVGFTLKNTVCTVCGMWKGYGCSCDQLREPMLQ
B1: cyanovirin-N (UniProt P81180); chain LGKFSQTCYNSAIQGSVLTSTCERTNGGYNTSSIDLNSVIENVDGSLKWQPSNFIETCRNTQLAGSSELAAECKTRAQQFVSTKINLDDHIANIDGTLKYE
B2: nusG (Mycobacterium tuberculosis, UniProt P9WIU9); chain TTFDGDTSAGEAVDLTEANAFQDAAAPAEEVDPAAALKAELRSKPGDWYVVHSYAGYENKVKANLETRVQNLDVGDYIFQVEVPTEEVTEIKNGQRKQVNRKVLPGYILVRMDLTDDSWAAVRNTPGVTGFVGATSRPSALALDDVVKFLLPRGSTRKAAKGAASTAAAAEAGGLERPVVEVDYEVGESVTVMDGPFATLPATISEVNAEQQKLKVLVSIFGRETPVELTFGQVSKI
B3: nsp16 (SARS-CoV-2, UniProt P0DTD1); chain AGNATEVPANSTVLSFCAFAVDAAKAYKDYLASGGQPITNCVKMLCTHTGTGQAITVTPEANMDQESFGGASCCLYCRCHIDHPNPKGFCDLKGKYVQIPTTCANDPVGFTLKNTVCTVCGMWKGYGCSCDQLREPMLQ

nsp16/nsp10 heterodimer (SARS-CoV-2) (sequence not shown)
binding (itself; crystal structure): binds

xthA (Mycobacterium tuberculosis, UniProt P96273)
Kd (ligA G639V (Mycobacterium tuberculosis, UniProt P9WNV1); SPR): 277 nM

B1 (cyanovirin-N)
binding (S S1 (SARS-CoV-2); SPR): binds

EVSIETDIIDEVN (N 377-389 (human coronavirus 229E, UniProt P15130))
Kd (N protein C-terminal domain 245-389 (human coronavirus 229E, UniProt P15130); fluorescence titration; peptide; 1 h, 25 °C): 7430 nM

B2 (nusG)
binding (rpoB (Mycobacterium tuberculosis, UniProt P9WGY9); cryo-EM): binds

B3 (nsp16)
subunits per oligomer (T1, itself; cross-linking): 2 and 4

cyanovirin-N homolog fragment (sequence not shown)
Kd (Spike fragment (SARS-CoV-2); ITC; pH 7.4, 30 °C, one-set-of-sites fit): 89.3 nM

Repeated from above:
xthA (Mycobacterium tuberculosis, UniProt P96273)
Kd (ligA G639V (Mycobacterium tuberculosis, UniProt P9WNV1); SPR): 277 nM
